Published values gathered from unrelated publications.
Lines come from different studies, so protocols differ. ≈ marks a conversion by molar mass, not a printed value.

O=C(C=CC(Cc1ccccc1)Nc1ccnc2cc(Cl)ccc12)NCCN1CCOCC1 (stereo not drawn)  survival rate (Plasmodium berghei; NK65, ICR mouse; 20 mg/kg once daily, 6 days post-infection): 60%
C=CCCCCOP(=O)(O)Oc1c2c(c(OP(=O)(O)OCCCCC=C)c3c1C1CC3c3cc4c(cc31)C1CC4c3ccccc31)C1CC2c2cc3c(cc21)C1CC3c2ccccc21  IC50 (measles virus; viral infection, flow cytometry; A549, vaccine strain GFP; 2 days, virus pre-incubated 30 min 37 °C): 7.4 µM
CN[C@@H]1[C@H](O)[C@H](NC)[C@H]2O[C@]3(O)[C@H](O[C@@H]2[C@H]1O)O[C@H](C)C[C@@]3(O)CNCc1ccccc1  inhibition zone diameter (Haemophilus influenzae; ATCC 49247; 40 µg per disc): 15.5 mm
CC[C@H](C)[C@H](NC(=O)[C@H](CCCCN)NC(=O)[C@H](CCCCN)NC(=O)[C@H](CC(C)C)NC(=O)[C@H](CCCCN)NC(=O)[C@H](CCC(=O)O)NC(=O)[C@H](CCCCN)NC(=O)[C@@H](NC(=O)[C@H](CCCCN)NC(=O)[C@H](CC(N)=O)NC(=O)[C@H](CCCNC(=N)N)NC(=O)[C@H](Cc1ccccc1)NC(=O)[C@H](CCCCN)NC(=O)[C@H](CCCNC(=N)N)NC(=O)[C@H](CC(C)C)NC(=O)[C@H](CCCNC(=N)N)NC(=O)[C@H](CCCCN)NC(=O)[C@H](CCCNC(=N)N)NC(=O)[C@H](CC(C)C)NC(=O)[C@@H](N)CCCNC(=N)N)[C@@H](C)CC)C(=O)NCC(=O)N[C@@H](CCC(N)=O)C(=O)N[C@@H](CCCCN)C(=O)N[C@H](C(=O)N[C@@H](CCC(N)=O)C(=O)NCC(=O)N[C@@H](Cc1ccccc1)C(=O)N[C@H](C(=O)N1CCC[C@H]1C(=O)N[C@@H](CCCCN)C(=O)N[C@@H](CC(C)C)C(=O)N[C@@H](CCC(N)=O)C(=O)N1CCC[C@H]1C(=O)N[C@@H](CO)C(=O)N[C@@H](CCCCN)C(=O)N[C@@H](CCC(N)=O)C(=O)N[C@@H](CO)C(=O)O)C(C)C)[C@@H](C)CC  lethal concentration (Bacillus megaterium; inhibition zone; CGMCC 1.046): 1.92 µM
CC[C@H](C)[C@H](NC(=O)[C@H](Cc1c[nH]c2ccccc12)NC(=O)[C@H](CCCNC(=N)N)NC(=O)[C@H](CCC(N)=O)NC(=O)[C@@H](NC(=O)[C@H](Cc1c[nH]c2ccccc12)NC(=O)[C@H](CCCNC(=N)N)NC(=O)[C@H](CCCNC(=N)N)NC(=O)[C@H](CCSC)NC(=O)[C@H](C)NC(=O)[C@H](CCCCN)NC(=O)[C@@H]1CCCN1C(=O)[C@H](C)N)C(C)C)C(=O)N[C@@H](CCCNC(=N)N)C(=O)N[C@@H](CCCNC(=N)N)C(=O)N[C@@H](Cc1c[nH]c2ccccc12)C(=O)N[C@@H](CCCNC(=N)N)C(=O)N1CCC[C@H]1C(=O)N[C@@H](CCCCN)C(=O)N[C@H](C(=O)N[C@@H](Cc1ccccc1)C(=O)N[C@@H](CCC(N)=O)C(=O)N[C@H](C(=O)N[C@H](C(=O)NCC(=O)N[C@@H](CO)C(=O)N[C@@H](CO)C(=O)N[C@@H](C)C(N)=O)[C@@H](C)O)C(C)C)C(C)C  minimum fungicidal concentration (Malassezia furfur; DTO 383-D9; 48 h): 0.3 µM (≈ 1.04 µg/mL)
CC(C)=C1CC[C@]23CO[C@H](C2)[C@@](O)(C(=O)O)CC[C@@H]13  growth inhibition (Arabidopsis thaliana; wild type, MS agar; 100 µM): inhibited
CC[C@H](C)[C@H](NC(=O)[C@H](CCCCN)NC(=O)[C@H](CCCCN)NC(=O)[C@H](CC(C)C)NC(=O)[C@H](CCCCN)NC(=O)[C@H](CCC(=O)O)NC(=O)[C@H](CCCCN)NC(=O)[C@@H](NC(=O)[C@H](CCCCN)NC(=O)[C@H](CC(N)=O)NC(=O)[C@H](CCCNC(=N)N)NC(=O)[C@H](Cc1ccccc1)NC(=O)[C@H](CCCCN)NC(=O)[C@H](CCCNC(=N)N)NC(=O)[C@H](CC(C)C)NC(=O)[C@H](CCCNC(=N)N)NC(=O)[C@H](CCCCN)NC(=O)[C@H](CCCNC(=N)N)NC(=O)[C@H](CC(C)C)NC(=O)[C@@H](N)CC(C)C)[C@@H](C)CC)C(=O)NCC(=O)N[C@@H](CCC(N)=O)C(=O)N[C@@H](CCCCN)C(=O)N[C@H](C(=O)N[C@@H](CCC(N)=O)C(=O)NCC(=O)N[C@@H](Cc1ccccc1)C(=O)N[C@H](C(=O)N1CCC[C@H]1C(=O)N[C@@H](CCCCN)C(=O)N[C@@H](CC(C)C)C(=O)N[C@H](C(=O)N1CCC[C@H]1C(=O)N[C@@H](CCCNC(=N)N)C(=O)N[C@H](C(=O)N[C@@H](CCC(=O)O)C(=O)N[C@@H](CO)C(=O)O)[C@@H](C)O)C(C)C)C(C)C)[C@@H](C)CC  lethal concentration (Salmonella; inhibition zone; ZQ.17N; LB agar, overnight): 1.95 µM
CC[C@@H](C)[C@@H](NC(=O)[C@@H](C)NC(=O)[C@@H](CCCCN)NC(=O)[C@@H](CC(C)C)NC(=O)[C@@H](CC(C)C)NC(=O)[C@H](NC(=O)[C@@H](CCCCN)NC(=O)[C@@H](CC(C)C)NC(=O)[C@@H](CCCCN)NC(=O)[C@@H](CCCCN)NC(=O)[C@@H](CCCCN)NC(=O)[C@@H](CCCCN)NC(=O)[C@@H](C)NC(=O)[C@@H](CCCCN)NC(=O)[C@@H](CO)NC(=O)[C@@H](Cc1ccccc1)NC(=O)[C@H](NC(=O)[C@@H](CCCCN)NC(=O)[C@@H](CC(C)C)NC(=O)[C@@H](Cc1ccccc1)NC(=O)[C@@H](CO)NC(=O)[C@@H](CCCCN)NC(=O)[C@@H](Cc1c[nH]c2ccccc12)NC(=O)[C@@H](CCCCN)NC(C)=O)[C@H](C)O)[C@H](C)O)C(=O)N[C@H](CO)C(=O)N[C@H](CCCCN)C(N)=O  therapeutic index (Acinetobacter baumannii; 11 isolates; relative to: HC50 over geometric mean MIC): 439
CCCCc1ccc(-c2nc(C)c(C(C)=NNC(=N)N)s2)cc1  time to complete kill (Staphylococcus aureus; USA300 MRSA; 3 × MIC, 37 °C): ≤ 4 h
CCCCCCCCCCCCCC(=O)N[C@@H](CCCNC(=N)N)C(=O)N[C@@H](CCCNC(=N)N)C(=O)N[C@@H](CCCNC(=N)N)C(N)=O  MIC range (Staphylococcus epidermidis and Staphylococcus aureus; clinical strains): 1.56 to 3.1 µM (≈ 1.09 to 2.16 µg/mL)
CS(=O)(=O)c1ccc(/C=N/NC(=O)Cn2ccc(=O)c3ccccc32)cc1  inhibition (Alternaria solani; microbial growth; 50 µg/mL): 30.8%
CN(C)CCNC(=O)/C=C/[C@H](Cc1ccccc1)Nc1ccnc2cc(Cl)ccc12  survival rate (Plasmodium berghei; NAT atovaquone-resistant, ICR mice; intravenous, 20 mg/kg once daily, 15 days post-infection): 100%
CC[C@H](C)[C@H](NC(=O)[C@H](CCCCN)NC(=O)[C@H](CCCCN)NC(=O)[C@H](CC(C)C)NC(=O)[C@H](CCCCN)NC(=O)[C@H](CCC(=O)O)NC(=O)[C@H](CCCCN)NC(=O)[C@@H](NC(=O)[C@H](CCCCN)NC(=O)[C@H](CC(N)=O)NC(=O)[C@H](CCCNC(=N)N)NC(=O)[C@H](Cc1ccccc1)NC(=O)[C@H](CCCCN)NC(=O)[C@H](CCCNC(=N)N)NC(=O)[C@H](CC(C)C)NC(=O)[C@H](CCCNC(=N)N)NC(=O)[C@H](CCCCN)NC(=O)[C@H](CCCNC(=N)N)NC(=O)[C@H](CC(C)C)NC(=O)CN)[C@@H](C)CC)C(=O)NCC(=O)N[C@@H](CCC(N)=O)C(=O)N[C@@H](CCCCN)C(=O)N[C@H](C(=O)N[C@@H](CCC(N)=O)C(=O)NCC(=O)N[C@@H](Cc1ccccc1)C(=O)N[C@H](C(=O)N1CCC[C@H]1C(=O)N[C@@H](CCCCN)C(=O)N[C@@H](CC(C)C)C(=O)N[C@@H](C)C(=O)N1CCC[C@H]1C(=O)N[C@@H](CCCNC(=N)N)C(=O)N[C@H](C(=O)N[C@@H](CC(=O)O)C(=O)N[C@@H](Cc1ccc(O)cc1)C(=O)O)[C@@H](C)O)C(C)C)[C@@H](C)CC  lethal concentration (Streptomyces griseus; inhibition zone; NBRC 13350; 37 °C, LB agar, 154 mM NaCl): 6.36 µM
CO.[Ag+].[S-]c1ncccn1.c1ccc(P(c2ccccc2)c2ccccc2)cc1.c1ccc(P(c2ccccc2)c2ccccc2)cc1  inhibition zone diameter (Candida albicans; MTCC 227, DMSO; 0.1 mL of 50 mg/mL in 8 mm well, 18 to 24 h): 13 mm
CC[C@H](C)[C@H](NC(=O)[C@H](CCCCN)NC(=O)[C@H](CCCCN)NC(=O)[C@H](CC(C)C)NC(=O)[C@H](CCCCN)NC(=O)[C@H](CCC(=O)O)NC(=O)[C@H](CCCCN)NC(=O)[C@@H](NC(=O)[C@H](CCCCN)NC(=O)[C@H](CC(N)=O)NC(=O)[C@H](CCCNC(=N)N)NC(=O)[C@H](Cc1ccccc1)NC(=O)[C@H](CCCCN)NC(=O)[C@H](CCCNC(=N)N)NC(=O)[C@H](CC(C)C)NC(=O)[C@H](CCCNC(=N)N)NC(=O)[C@H](CCCCN)NC(=O)[C@H](CCCNC(=N)N)NC(=O)[C@@H](N)CC(C)C)[C@@H](C)CC)C(=O)NCC(=O)N[C@@H](CCC(N)=O)C(=O)N[C@@H](CCCCN)C(=O)N[C@H](C(=O)N[C@@H](CCC(N)=O)C(=O)NCC(=O)N[C@@H](Cc1ccccc1)C(=O)N[C@H](C(=O)N1CCC[C@H]1C(=O)N[C@@H](CCCCN)C(=O)N[C@@H](CC(C)C)C(=O)O)C(C)C)[C@@H](C)CC  lethal concentration (Bacillus megaterium; inhibition zone; CGMCC 1.046): 1.46 µM
CCN(CCCCOc1ccc(CCC(=O)N2CCC(Cc3ccccc3)CC2)cc1OC)Cc1ccccc1  response capacity (Danio rerio; BuChE-overexpressing; concentration not given, light to dark transition): increased
COc1ccc(N2C(=O)C=CC2=O)cc1  mRNA level (Candida albicans; qRT-PCR, item: EFG1; 1 µg/mL, 12 h; relative to: untreated): 0.29 fold
COC(=O)c1[nH]c(=O)c2cccnc2c1O  inhibition (Human betaherpesvirus 5; viral replication, inhibitor; HFF; 10 µM): 11%
COc1ccccc1-c1n[nH]c2nc(N[C@H]3CC[C@H](NS(=O)(=O)CC(C)C)CC3)ncc12  sensitivity fold (Leishmania donovani; LdBOB CRK12 single-allele knock-out; promastigotes; relative to: wild type, higher = more sensitive): ~2 fold
CC[C@@H](C)[C@@H](NC(=O)[C@@H](C)NC(=O)[C@@H](CCCCN)NC(=O)[C@@H](CC(C)C)NC(=O)[C@@H](C)NC(=O)[C@H](NC(=O)[C@@H](Cc1c[nH]cn1)NC(=O)[C@@H](CC(C)C)NC(=O)[C@H](NC(=O)[C@H](NC(=O)[C@@H](CCCCN)NC(=O)[C@@H](CCCCN)NC(=O)[C@@H](C)NC(=O)[C@@H](CO)NC(=O)[C@@H](CCCCN)NC(=O)[C@@H](Cc1ccccc1)NC(=O)[C@H](NC(=O)[C@@H](CCCCN)NC(=O)[C@@H](CC(C)C)NC(=O)[C@@H](Cc1ccccc1)NC(=O)[C@@H](CO)NC(=O)[C@@H](CCCCN)NC(=O)[C@@H](Cc1c[nH]c2ccccc12)NC(=O)[C@@H](CCCCN)NC(C)=O)[C@H](C)O)[C@H](C)O)C(C)C)[C@H](C)O)C(=O)N[C@H](CO)C(=O)N[C@H](CO)C(N)=O  MIC50 (Aspergillus nidulans; AZN 2867; 48 h, 30 °C): 9.4 µg/mL (≈ 3.14 µM)
C[N+]1=C2C(c3ccccc3)=[N+]([O-])c3ccccc3N2CCC1  MIC (Bacteroides ovatus; ATCC 84834): 4 µg/mL

For quick reference, copied from above:
C[N+]1=C2C(c3ccccc3)=[N+]([O-])c3ccccc3N2CCC1  MIC (Bacteroides ovatus; ATCC 84834): 4 µg/mL
CC[C@H](C)[C@H](NC(=O)[C@H](CCCCN)NC(=O)[C@H](CCCCN)NC(=O)[C@H](CC(C)C)NC(=O)[C@H](CCCCN)NC(=O)[C@H](CCC(=O)O)NC(=O)[C@H](CCCCN)NC(=O)[C@@H](NC(=O)[C@H](CCCCN)NC(=O)[C@H](CC(N)=O)NC(=O)[C@H](CCCNC(=N)N)NC(=O)[C@H](Cc1ccccc1)NC(=O)[C@H](CCCCN)NC(=O)[C@H](CCCNC(=N)N)NC(=O)[C@H](CC(C)C)NC(=O)[C@H](CCCNC(=N)N)NC(=O)[C@H](CCCCN)NC(=O)[C@H](CCCNC(=N)N)NC(=O)[C@H](CC(C)C)NC(=O)[C@@H](N)CCCNC(=N)N)[C@@H](C)CC)C(=O)NCC(=O)N[C@@H](CCC(N)=O)C(=O)N[C@@H](CCCCN)C(=O)N[C@H](C(=O)N[C@@H](CCC(N)=O)C(=O)NCC(=O)N[C@@H](Cc1ccccc1)C(=O)N[C@H](C(=O)N1CCC[C@H]1C(=O)N[C@@H](CCCCN)C(=O)N[C@@H](CC(C)C)C(=O)N[C@@H](CCC(N)=O)C(=O)N1CCC[C@H]1C(=O)N[C@@H](CO)C(=O)N[C@@H](CCCCN)C(=O)N[C@@H](CCC(N)=O)C(=O)N[C@@H](CO)C(=O)O)C(C)C)[C@@H](C)CC  lethal concentration (Bacillus megaterium; inhibition zone; CGMCC 1.046): 1.92 µM
CO.[Ag+].[S-]c1ncccn1.c1ccc(P(c2ccccc2)c2ccccc2)cc1.c1ccc(P(c2ccccc2)c2ccccc2)cc1  inhibition zone diameter (Candida albicans; MTCC 227, DMSO; 0.1 mL of 50 mg/mL in 8 mm well, 18 to 24 h): 13 mm
